# Experimental data of several laboratories.
# Each line is one published result; not all experiments were run side by side. Values joined by “and” are separate records of one study, mostly repeats; a detail may differ. ± marks the error that the study gave.
SMILES,test,test system,conditions,how to read,quantity,value
C=CC(=O)Nc1cc(Nc2nccc(-c3cn(C)c4ccccc34)n2)c(OC)cc1N(C)CCN(C)C,storage stability,human dried blood spot,"30 d, -80 °C, LQC level",,recovery,91.3%
C=CCn1c(=O)c2cnc(Nc3ccc(N4CCN(C)CC4)cc3)nc2n1-c1cccc(C(C)(C)O)n1,,human patients,"oral, 175 mg twice daily, monotherapy, -5 day lead-in",,AUC(0-10 h),7.64 µM·h
C[C@@H](Nc1cc(F)cc(F)c1)c1cc(C(=O)N(C)C)cc2c(=O)cc(N3CCOCC3)oc12,refers to: Hypersensitivity,advanced solid tumour patients,"oral, dose not given, dose expansion",,related serious adverse events,0%
CC(C)(C)NC(=O)C1CCN(Cc2cccc(/N=N/c3ccccc3)c2)CC1,,DMSO,"25 µM, 25 °C",,"absorption maximum, cis isomer",436 nm
C[C@H]1CN(C(=O)CC#N)[C@]12CCN(c1ncnc3[nH]ccc13)C2,,"healthy adults, plasma","oral, 3 mg single dose",,half-life (geometric mean),2.3 h
CN1CCN(C(=O)c2ccc([C@H]3[C@@H](F)[C@@H](F)C[C@@H](F)[C@H]3F)cc2)CC1,liver microsome stability,rat liver microsomes,1 µM,,hepatic clearance,19 mL/min/kg
Cc1nc(-c2ccc(OCC(C)C)c(C#N)c2)sc1C(=O)O,,"KM mouse, chronic hyperuricaemia model","dose not given, day 24",,body weight,32.9 g and 39.1 g and 43.7 g and 41.2 g and 37.1 g and 34.5 g
Cc1ccc2c(c1)nc(/C=C/c1cccc3cccnc13)n2-c1cccc(OCCCN2CCN(C)CC2)c1,,male Sprague-Dawley rat,"oral, 10 mg/kg, 4 h",,plasma concentration,443 ± 75.5 nM
COCCC(=O)Nc1ccc([C@H]2[C@@H](F)[C@@H](F)C[C@@H](F)[C@H]2F)cc1,hepatocyte stability,cryopreserved mouse hepatocytes,1 µM,,hepatic clearance,64 mL/min/kg
CCOCc1nc(O)c(-c2nnc(Cc3ccc(Cl)cn3)o2)c(O)c1-c1c(OC)cccc1OC,,"rat, anaesthetised, cannulated, plasma","intravenous infusion, 1 µg/kg/min, 20 min after infusion stop, washout",,plasma concentration,231 nM
Cn1cc(Nc2nccc(-c3ccc4c(c3)CN(C3COC3)CC[C@H]4NC(=O)c3cn(C(C)(C)C)nn3)n2)cn1,,"human, whole blood","50 mg twice daily, day 7",baseline: pre-dose baseline,CD3+ T cell count change,15.4%
CCO,,healthy Chinese men,"0.5 g/kg, supine or semi-supine, together with: placebo",baseline: baseline,maximal decrease in diastolic BP,-14.4 ± 7.82 mmHg
Cc1cc(Nc2ccc(S(F)(F)(F)(F)F)cc2)n2nc(C(C)(F)F)nc2n1,,"mouse (CD-1, female), whole blood","oral, 300 mg/kg daily, 8 h after dose 10",,blood concentration,354000 ± 65000 nM
CN(Cc1cccnc1)C(=O)c1ccc([C@H]2[C@@H](F)[C@@H](F)C[C@@H](F)[C@H]2F)cc1,liver microsome stability,mouse liver microsomes,1 µM,,hepatic clearance,75 mL/min/kg
O=C(OC(C(F)(F)F)C(F)(F)F)N1CCN(Cc2cccc(Oc3ccccc3)c2)CC1,PET blocking study,"rhesus monkey, brain STR","0.3 mg/kg, compound pretreatment, together with: [18F]T-401 tracer",,Ktrans,0.0041 min⁻¹
CC1(C)C2CCC1(CS(=O)(=O)[O-])C(=O)C2.[Na+] (racemic),thermogravimetric analysis,,nitrogen 10 °C/min,,degradation onset temperature,370 °C
CCN1/C(=C/C(C)=O)Sc2ccc(F)cc21,,cynomolgus monkey,"oral, 30 mg/kg, 4 h post-dose",baseline: pre-dose,PR interval change,102 ± 2.2%
CN[C@@H](C)C(=O)N[C@H]1CN(S(=O)(=O)c2cccc(S(=O)(=O)N3CC[C@H]4CC[C@@H](C(=O)NC(c5ccccc5)c5ccccc5)N4C(=O)[C@@H](NC(=O)[C@H](C)NC)C3)c2)CC[C@H]2CC[C@@H](C(=O)NC(c3ccccc3)c3ccccc3)N2C1=O,LC-MS/MS,"human, advanced solid tumours, plasma","intravenous, 0.3 mg weekly, day 1",,AUC(0-t),7.49 ± 2.39 ng·h/mL
CC(C)Cn1cnc2c(N)nc3ccccc3c21,,"C57BL/6J mice, female, solvent-treated, liver microsomes","1 µM, 45 min",,remaining compound,~10%
Cn1ncnc1[C@H]1c2n[nH]c(=O)c3cc(F)cc(c23)N[C@@H]1c1ccc(F)cc1,,"human patients, plasma","oral, 600 µg/m2 twice daily, day 1, monotherapy, dose level DL5, median",,AUC(0-8h),24.3 ng·h/mL
CCOc1c([C@H](C)n2nc(C)c3c(N)ncnc32)cc(Cl)c(F)c1[C@@H]1CNC(=O)C1,,human B-cell malignancy patients,"oral, all doses, baseline QTcF ≤450 ms",,observations with ΔQTcF >30 to ≤60 ms,2.5%
CN(C)C(=N)N=C(N)N,refers to: vascular disorders,healthy men,"oral, dose not given, 8 days, treatment-emergent, crossover trial",,subjects with adverse event,9.1%
COCCN(C)C(=O)c1ccc(C2CCCCC2)cc1,liver microsome stability,cynomolgus liver microsomes,1 µM,,hepatic clearance,40 mL/min/kg
Cc1ccc(CCC(=O)Nc2nnc(S(N)(=O)=O)s2)cc1,,"BALB/c mouse, male, plasma","oral, 20 mg/kg, 8 h",,unbound plasma concentration,0.001 ng/mL
OC[C@H]1O[C@@H](c2ccc(Cl)c(Cc3ccc(O[C@H]4CCOC4)cc3)c2)[C@H](O)[C@@H](O)[C@@H]1O,,"Japanese type 1 diabetes patients, blood","10 mg, day 28",baseline: baseline,change in LDL/HDL ratio,-0.08
Cc1ccc(Sc2ccccc2N2CCNCC2)c(C)c1,refers to: Thirst,healthy adult women,"oral, 10 mg daily, 12 days",,participants with TEAE,16.7%
CO[C@H]1C[C@@H]2CC[C@@H](C)[C@@](O)(O2)C(=O)C(=O)N2CCCC[C@H]2C(=O)O[C@H]([C@H](C)C[C@@H]2CC[C@@H](O)[C@H](OC)C2)CC(=O)[C@H](C)/C=C(\C)[C@@H](O)[C@@H](OC)C(=O)[C@H](C)C[C@H](C)/C=C/C=C/C=C/1C,,healthy adult horses,"intravenous, 0.06 mg/kg, 72 h",,heart rate,33.3 ± 6.2 beats/min
Cc1nc2ccc(F)cc2n1-c1nc(N)c(F)c(Nc2ccc(C(F)(F)F)cc2)n1,,leiomyosarcoma patients,"200 mg twice weekly, together with: dacarbazine 1000 mg/m^2",baseline: subjects,myelosuppression-related DLT,25%
C=CC[C@@H]1/C=C(\C)C[C@H](C)C[C@H](OC)[C@H]2O[C@@](O)(C(=O)C(=O)N3CCCC[C@H]3C(=O)O[C@H](/C(C)=C/[C@@H]3CC[C@@H](O)[C@H](OC)C3)[C@H](C)[C@@H](O)CC1=O)[C@H](C)C[C@@H]2OC,,"Wistar Kyoto rat, male, plasma","ip, 0.5 mg/kg/day, day 18",,plasma Mg2+,0.65 ± 0.04 mmol/L
O=C(O)CCC(=O)O.[2H]C([2H])([2H])Oc1cc(C)c2[nH]ccc2c1CN1CC[C@@H](C2CC2)C[C@H]1c1ccc(C(=O)O)cc1,,healthy Chinese subjects,"50 mg, single ascending dose",,TEAE proteinuria,0%
CSCC[C@H](N)C(=O)N[C@H](CC(C)C)C(=O)N[C@@H](CCCNC(=N)N)C(=O)N[C@@H](Cc1c[nH]c2ccccc12)C(=O)N[C@@H](CO)C(=O)N[C@@H](CCCNC(=N)N)C(=O)N[C@@H](CCCCN)C(=O)N[C@@H](CC(C)C)C(=O)N1CCC[C@H]1C(=O)N[C@@H](CS)C(=O)N[C@H](C(=O)N[C@@H](CO)C(N)=O)C(C)C,"12G5 competition, SUP-T1 cells",human plasma,"20 µM, 8 h, 37 °C",,remaining activity,45 ± 5%
O=[N+]([O-])c1cc2c3ccccc3ccc2c2ccccc12,,"female Sprague-Dawley rats, mammary gland","intramammary injection, 12.3 µmol/rat total, palpation from week 5",,time to first palpable tumour,9 week
CNC(=O)c1ccc(-c2cnc3ncc(Cc4ccc5ncccc5c4)n3n2)cc1F,refers to: Anemia,cancer patients,"oral, dose not given, dose escalation, grade 3-4",,patients with adverse event,5%
N#CCC(=O)Nc1ccc(C2CCCCC2)cc1,liver microsome stability,cynomolgus liver microsomes,1 µM,,hepatic clearance,42 mL/min/kg
N#Cc1ccc2c(c1)[C@H]1CCCN(C(=O)c3ccc4[nH]cnc4c3)[C@H]1C2,,human males,"40 mg, day 15",,SHBG level,42.8 nmol/L
CNc1ccc(-c2nc3ccc(O)cc3s2)cc1 [carbon-11 labelled],ex vivo biodistribution,"APP/PS1 mouse, AD model, pancreas","intravenous, 30 min",,SUV,0.384 ± 0.157
O=C(NCCc1cccnc1)c1ccc(C2CCCCC2)cc1,liver microsome stability,cynomolgus liver microsomes,1 µM,,hepatic clearance,41 mL/min/kg
CC(C)NCCCC[C@@H]1NC(=O)[C@H](Cc2ccc(O)cc2)NC(=O)[C@H](Cc2ccccc2)NC(=O)CC[C@H](C(=O)N[C@@H](CCCCNC(C)C)C(=O)N[C@@H](CCCCNC(=O)[C@H](CCC(=O)O)NC(=O)[C@H](CCC(=O)O)NC(=O)[C@H](CCC(=O)O)NC(=O)CN2CCN(CC(=O)O)CCN(CC(=O)O)CCN(CC(=O)O)CC2)C(N)=O)NC(=O)CNC(=O)[C@H](Cc2ccc3ccccc3c2)NC(=O)[C@@H](CCCNC(=N)N)NC1=O [gallium-68 labelled],,"mouse with PC-3 xenograft, muscle","intravenous, 1 h",,tissue uptake,0.1 %ID/g
CC(C)(C(=O)N1CCOc2c(C#N)cncc2C1)C(F)F,refers to: skin disorders,"healthy humans, both sexes","oral, 10 mg single dose",,share of subjects with TEAE,16.7%
CC(C)(c1ccc(O)cc1)c1ccc(O)cc1,,cow whole milk,20 nM,baseline: milk fat over skim milk,milk fat partition ratio,13.7
CC(C)C(=O)O[C@H]1[C@H](C)OC(=O)[C@@H]1Cc1ccccc1,soil adsorption,tested soils,geometric mean,,KFoc,118 mL/g
CCN1CCN(Cc2ccc(NC(=O)c3ccc(C)c(NC(=O)c4cncc(-c5cccs5)c4)c3)cc2C(F)(F)F)CC1,LC-MS/MS,"C57BL/6 mouse, plasma","intraperitoneal, 30 mg/kg single dose, 2 h",,mean plasma concentration,496 ng/mL
N#CCC(=O)Nc1ccc([C@H]2[C@@H](F)[C@@H](F)C[C@@H](F)[C@H]2F)cc1,hepatocyte stability,cryopreserved mouse hepatocytes,1 µM,,hepatic clearance,46 mL/min/kg
CNC(=O)c1ccc(-c2cnc3ncc(Cc4ccc5ncccc5c4)n3n2)cc1F,,"human, healthy subjects, plasma","oral, 200 mg, covariate-adjusted geometric mean",,AUC(0-t),6620 ng·h/mL
CNCc1ccc(-c2[nH]c3cc(F)cc4c3c2CCNC4=O)cc1,,human patients,"oral, 600 mg twice daily, grade 1",,pulmonary embolism incidence,0%
Cc1cn(C(=O)c2c(-c3c(Cl)cc(Cl)cc3Cl)noc2C(C)(C)F)c2cccc(/C=C/C(=O)O)c12,,human patients,"700 mg bid, cycle 8 day 1",,AUC(0-8h),239000 ng·h/mL
NC1(C(=O)N[C@@H](CCO)c2ccc(Cl)cc2)CCN(c2nc[nH]c3nccc2-3)CC1,,metastatic CRPC patients,"480 mg b.i.d., any grade, treatment-related, together with: enzalutamide 160 mg daily",,incidence of Dyspepsia,0%
Cc1cc(NC2CCN(C(=O)OC3CCN(C(=O)/C=C/CN(C)C)C3)CC2)n2ncc(C(C)C)c2n1 (stereo not drawn),,patients with advanced solid tumours,"dose not given, QD arm, any grade",,patients with Flatulence,9%
Cc1ccc(OC2CCN(c3c(C#N)cnc4ccc(F)cc34)CC2)cn1,,human liver microsomes,,,intrinsic clearance (scaled),58 mL/min/kg
Cc1ccc2cncc(N3CCc4c(cc(Cn5ccnc5)cc4-c4cn(C)nc4C(F)(F)F)C3=O)c2c1,,"CD-1 mouse, male, plasma","oral, 50 mg/kg",,AUC extrapolated,0%
O=C(Nc1nc2cccc(-c3ccc(CN4CCS(=O)(=O)CC4)cc3)n2n1)C1CC1,refers to: headache,human rheumatoid arthritis patients,"oral, 75 mg once daily, 4 weeks, regardless of relatedness",,treatment-emergent adverse events,4.5%
CNC(=O)c1ccc(-c2cnc3ncc(Cc4ccc5ncccc5c4)n3n2)cc1F,,Japanese patients,"oral, 400 mg twice daily, grade 3/4",,Teratogenicity patients,0%
O=C(Nc1ccc(Cl)cc1)Nc1ccc(Cl)c(Cl)c1,,cow whole milk,2000 nM,baseline: milk fat over skim milk,milk fat partition ratio,161
CN(CCC#N)C(=O)c1ccc([C@H]2[C@@H](F)[C@@H](F)C[C@@H](F)[C@H]2F)cc1,liver microsome stability,cynomolgus liver microsomes,1 µM,,hepatic clearance,4.9 mL/min/kg
O=C(COc1ccc(Cl)cc1)NC12CC(c3nnc([C@H]4C[C@@H](OC(F)(F)F)C4)o3)(C1)C2,refers to: post lumbar puncture syndrome,human,"100 mg once daily, 28 (unit not given)",,adverse event incidence,10%
O=c1[nH]cc([C@@H]2O[C@H](CO)[C@@H](O)[C@H]2O)c(=O)[nH]1,ultrafiltration,normal rat serum,37 °C,,serum protein binding,< 24%
Cc1cc(Nc2ccc(S(F)(F)(F)(F)F)cc2)n2nc(C(C)(F)F)nc2n1,,Plasmodium falciparum malaria patients,"oral, 400 mg",,adverse event Thrombocytopenia,0%

# Repeated from above:
SMILES,test,test system,conditions,how to read,quantity,value
CC(C)NCCCC[C@@H]1NC(=O)[C@H](Cc2ccc(O)cc2)NC(=O)[C@H](Cc2ccccc2)NC(=O)CC[C@H](C(=O)N[C@@H](CCCCNC(C)C)C(=O)N[C@@H](CCCCNC(=O)[C@H](CCC(=O)O)NC(=O)[C@H](CCC(=O)O)NC(=O)[C@H](CCC(=O)O)NC(=O)CN2CCN(CC(=O)O)CCN(CC(=O)O)CCN(CC(=O)O)CC2)C(N)=O)NC(=O)CNC(=O)[C@H](Cc2ccc3ccccc3c2)NC(=O)[C@@H](CCCNC(=N)N)NC1=O [gallium-68 labelled],,"mouse with PC-3 xenograft, muscle","intravenous, 1 h",,tissue uptake,0.1 %ID/g
CC(C)(C(=O)N1CCOc2c(C#N)cncc2C1)C(F)F,refers to: skin disorders,"healthy humans, both sexes","oral, 10 mg single dose",,share of subjects with TEAE,16.7%
CC(C)(c1ccc(O)cc1)c1ccc(O)cc1,,cow whole milk,20 nM,baseline: milk fat over skim milk,milk fat partition ratio,13.7
CC(C)C(=O)O[C@H]1[C@H](C)OC(=O)[C@@H]1Cc1ccccc1,soil adsorption,tested soils,geometric mean,,KFoc,118 mL/g
CCN1CCN(Cc2ccc(NC(=O)c3ccc(C)c(NC(=O)c4cncc(-c5cccs5)c4)c3)cc2C(F)(F)F)CC1,LC-MS/MS,"C57BL/6 mouse, plasma","intraperitoneal, 30 mg/kg single dose, 2 h",,mean plasma concentration,496 ng/mL
N#CCC(=O)Nc1ccc([C@H]2[C@@H](F)[C@@H](F)C[C@@H](F)[C@H]2F)cc1,hepatocyte stability,cryopreserved mouse hepatocytes,1 µM,,hepatic clearance,46 mL/min/kg
CNC(=O)c1ccc(-c2cnc3ncc(Cc4ccc5ncccc5c4)n3n2)cc1F,,"human, healthy subjects, plasma","oral, 200 mg, covariate-adjusted geometric mean",,AUC(0-t),6620 ng·h/mL
CNCc1ccc(-c2[nH]c3cc(F)cc4c3c2CCNC4=O)cc1,,human patients,"oral, 600 mg twice daily, grade 1",,pulmonary embolism incidence,0%
